Experimental data from different studies.
Compare with care: the assays were run in different laboratories. Several values in a cell are separate wells, animals, samples, runs or records. ± marks the error that the study gave.
UniProt P36896, sequence (whole entry, looked up): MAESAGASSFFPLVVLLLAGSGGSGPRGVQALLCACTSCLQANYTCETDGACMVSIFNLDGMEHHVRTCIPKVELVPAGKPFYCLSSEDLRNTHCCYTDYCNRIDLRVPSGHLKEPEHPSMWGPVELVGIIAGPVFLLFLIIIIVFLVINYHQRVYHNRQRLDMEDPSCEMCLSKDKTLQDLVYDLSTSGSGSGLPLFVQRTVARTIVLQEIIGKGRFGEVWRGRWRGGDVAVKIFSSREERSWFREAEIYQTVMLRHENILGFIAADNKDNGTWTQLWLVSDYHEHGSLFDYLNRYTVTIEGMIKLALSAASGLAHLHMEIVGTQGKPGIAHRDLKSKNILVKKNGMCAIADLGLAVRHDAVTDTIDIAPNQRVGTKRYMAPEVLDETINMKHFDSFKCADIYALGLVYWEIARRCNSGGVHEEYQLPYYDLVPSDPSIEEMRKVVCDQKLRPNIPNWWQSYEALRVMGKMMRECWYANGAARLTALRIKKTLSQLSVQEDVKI
UniProt P42684, sequence (whole entry, looked up): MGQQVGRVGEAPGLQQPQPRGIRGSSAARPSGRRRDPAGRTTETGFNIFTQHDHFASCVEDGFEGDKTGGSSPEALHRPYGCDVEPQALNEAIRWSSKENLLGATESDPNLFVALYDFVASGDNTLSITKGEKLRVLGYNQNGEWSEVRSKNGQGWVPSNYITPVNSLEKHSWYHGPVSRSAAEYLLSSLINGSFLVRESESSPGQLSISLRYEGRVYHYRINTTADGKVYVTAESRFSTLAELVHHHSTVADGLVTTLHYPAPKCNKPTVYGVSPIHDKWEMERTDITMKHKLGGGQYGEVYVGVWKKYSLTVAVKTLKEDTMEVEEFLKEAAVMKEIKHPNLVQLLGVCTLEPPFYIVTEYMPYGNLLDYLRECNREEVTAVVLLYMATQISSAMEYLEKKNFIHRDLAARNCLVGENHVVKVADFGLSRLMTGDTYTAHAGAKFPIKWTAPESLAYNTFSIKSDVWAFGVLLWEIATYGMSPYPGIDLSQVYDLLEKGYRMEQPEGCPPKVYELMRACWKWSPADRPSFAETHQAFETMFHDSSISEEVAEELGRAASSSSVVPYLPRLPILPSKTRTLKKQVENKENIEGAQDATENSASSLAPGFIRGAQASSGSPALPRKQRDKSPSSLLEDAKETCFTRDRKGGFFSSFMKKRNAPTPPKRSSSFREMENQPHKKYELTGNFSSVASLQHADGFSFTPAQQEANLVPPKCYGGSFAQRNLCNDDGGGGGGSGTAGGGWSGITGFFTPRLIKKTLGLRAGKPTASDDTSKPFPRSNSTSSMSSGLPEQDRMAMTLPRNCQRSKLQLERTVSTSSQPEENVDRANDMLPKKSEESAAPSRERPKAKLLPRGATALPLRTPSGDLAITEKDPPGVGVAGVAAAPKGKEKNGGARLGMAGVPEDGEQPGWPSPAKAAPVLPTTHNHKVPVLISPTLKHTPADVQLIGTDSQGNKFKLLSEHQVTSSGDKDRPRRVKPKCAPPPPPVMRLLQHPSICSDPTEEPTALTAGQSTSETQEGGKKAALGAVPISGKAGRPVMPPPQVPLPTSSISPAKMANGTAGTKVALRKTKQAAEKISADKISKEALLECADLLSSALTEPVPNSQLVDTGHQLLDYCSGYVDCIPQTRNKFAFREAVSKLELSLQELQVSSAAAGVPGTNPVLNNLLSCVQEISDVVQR
UniProt Q13163, sequence (whole entry, looked up): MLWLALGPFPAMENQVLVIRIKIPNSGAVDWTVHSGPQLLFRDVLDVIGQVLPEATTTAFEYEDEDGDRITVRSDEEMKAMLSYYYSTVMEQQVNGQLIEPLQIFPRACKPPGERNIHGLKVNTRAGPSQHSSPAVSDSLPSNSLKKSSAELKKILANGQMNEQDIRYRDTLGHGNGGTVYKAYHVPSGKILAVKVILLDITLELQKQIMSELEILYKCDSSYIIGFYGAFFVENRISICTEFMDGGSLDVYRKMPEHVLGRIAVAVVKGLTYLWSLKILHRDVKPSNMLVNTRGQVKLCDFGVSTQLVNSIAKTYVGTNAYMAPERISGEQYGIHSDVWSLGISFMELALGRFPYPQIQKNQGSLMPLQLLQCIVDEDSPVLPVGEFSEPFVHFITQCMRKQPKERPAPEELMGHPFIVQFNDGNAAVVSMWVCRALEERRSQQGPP
UniProt P49759, sequence (whole entry, looked up): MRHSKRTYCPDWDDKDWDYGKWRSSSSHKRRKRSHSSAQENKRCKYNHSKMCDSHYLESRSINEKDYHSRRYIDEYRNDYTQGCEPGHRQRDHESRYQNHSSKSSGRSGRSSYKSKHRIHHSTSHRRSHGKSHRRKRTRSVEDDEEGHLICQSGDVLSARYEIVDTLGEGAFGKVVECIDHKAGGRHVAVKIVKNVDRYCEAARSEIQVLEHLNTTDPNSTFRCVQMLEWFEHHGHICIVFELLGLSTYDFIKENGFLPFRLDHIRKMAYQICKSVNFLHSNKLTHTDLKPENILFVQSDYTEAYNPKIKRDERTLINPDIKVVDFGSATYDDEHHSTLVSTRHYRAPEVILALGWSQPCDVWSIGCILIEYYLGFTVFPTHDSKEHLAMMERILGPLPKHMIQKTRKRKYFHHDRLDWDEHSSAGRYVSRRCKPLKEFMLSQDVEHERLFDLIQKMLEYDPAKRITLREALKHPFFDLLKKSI

Structure (SMILES)	tested on	assay	test system	setting	scale	measurement	result
CC(C)CC(C(=O)N1CC2(CC1C#N)C(=O)Nc1ccccc12)N(C)C(=O)c1cc2c(F)cc(F)c(F)c2[nH]1 (stereo not drawn)	Human coronavirus 229E	cytopathic effect	MRC5	50 nM		inhibition	94%
O=C(c1cccc(-c2ccc3ncnc(Nc4ccc(OCc5cccc(F)c5)c(Cl)c4)c3c2)c1)N1CCCC1	Plasmodium falciparum	parasite growth, SYBR Green fluorescence	W2, drug-resistant			EC50	88 nM
O=C(O)c1ccc(-c2nc(-c3ccccc3Cl)c3sccn23)cc1	HEL	flow cytometry, measured: surface CD235a		0.01 mM	higher = more expression	mean fluorescence intensity	21100 a.u.
Cc1cc(C(=O)Nc2nc3cccc(C)c3n2[C@H]2CCCCN(C(=O)/C=C/CN(C)C)C2)ccn1	Trypanosoma brucei		STIB795, mouse acute HAT model	oral, 50 mg/kg once daily for 4 days, day 0	relative to: mice	survival	100%
CS(C)(=O)=Nc1ccc(-c2ccc(-c3nc4cc(O[C@@H]5CO[C@H]6[C@@H]5OC[C@H]6O)[nH]c4cc3F)cc2)cc1	Dual specificity protein kinase CLK1 (CLK1, Homo sapiens, UniProt P49759)	enzyme activity, inhibitor		10 µM		inhibition	5%
CCOC(=O)C1(Cc2c(F)cccc2F)Oc2cc(F)ccc2N(Cc2c(F)cccc2F)C1=O (stereo not drawn)	Arabidopsis thaliana	root length, petri dish germination	Col-0, 1/2 MS medium	200 µg/mL, 7 days, 22 °C, dark		inhibition	39.8%
COc1ccccc1-c1n[nH]c2nc(NC3CCN(C(=O)Cc4ccc(F)cc4F)CC3)ncc12		bead binding, competition bead pull-down, measured: LINJ.23.0120	Leishmania donovani extract	10 µM	relative to: vehicle	relative abundance	1.01
Cc1cc(Oc2nc(N3CC[C@@H](c4ccncc4)C3)ncc2F)[nH]n1	Mycobacterium tuberculosis		THP-1, H37Rv non-replicating	30 µM, day 4		normalised growth	47.2% and 30.2%
Cc1ccc(N2CC3CC(C2)N3C)cc1C(=O)NC1(c2ccc3c4c(cccc24)C(=O)N3C)CC1	human coronavirus 229E	viral replication	Huh-7	3 µM		inhibition	50%
O=C1NC(=O)c2c1c1cc(F)c[n+]3c1c1c2c2cc(O)ccc2[n]1[Ru-4]312([N]=C=S)[S+]3CC[S+]1CC[S+]2CC3 (stereo not drawn)	Activin receptor type-1B (ACVR1B, Homo sapiens, UniProt P36896)	enzyme activity		100 nM, human enzyme, added: 10 µM ATP	relative to: untreated	remaining activity	122%
COc1ccccc1-c1n[nH]c2nc(N[C@H]3CC[C@H](NS(=O)(=O)CC(C)C)CC3)ncc12		bead binding, competition bead pull-down, measured: LINJ.03.0190	Leishmania donovani extract	10 µM	relative to: vehicle	relative abundance	0.78
CC(C)(C)C(=O)OCOP(=O)(OCOC(=O)C(C)(C)C)C1CCCN(O)C1=O (stereo not drawn)	SF-295					log LC50	> -4 log M
CN(C)[C@H]1C[C@@]23CC[C@@]4(O2)C(=CC[C@]2(C)[C@@H](c5ccc6ccncc6c5)CC[C@H]24)C=C3[C@@H](O)[C@@H]1O	Dual specificity mitogen-activated protein kinase kinase 5 (MAP2K5, Homo sapiens, UniProt Q13163)	ATP probe labelling, inhibitor, KiNativ profiling		1 µM		inhibition	-14.4%
O=C1NC2(CC2)COc2ncc(F)cc2[C@H]2COCCN2c2ccn3ncc1c3n2			Sprague-Dawley rat, female, serum	oral, 20 mg/kg/day, 4 weeks daily, end of treatment		potassium	3.96 ± 0.51 mmol/L
CC(C)[C@H]1NC(=O)C[C@H]2/C=C/CCSSC[C@@H](NC1=O)C(=O)N[C@H](Cc1cccc3ccccc13)C(=O)NCC(=O)O2	Tyrosine-protein kinase ABL2 (ABL2, Homo sapiens, UniProt P42684)	enzyme activity, inhibitor		10 µM		inhibition	4%

A few entries again:
Structure (SMILES)	tested on	assay	test system	setting	scale	measurement	result
O=C1NC(=O)c2c1c1cc(F)c[n+]3c1c1c2c2cc(O)ccc2[n]1[Ru-4]312([N]=C=S)[S+]3CC[S+]1CC[S+]2CC3 (stereo not drawn)	Activin receptor type-1B (ACVR1B, Homo sapiens, UniProt P36896)	enzyme activity		100 nM, human enzyme, added: 10 µM ATP	relative to: untreated	remaining activity	122%
COc1ccccc1-c1n[nH]c2nc(N[C@H]3CC[C@H](NS(=O)(=O)CC(C)C)CC3)ncc12		bead binding, competition bead pull-down, measured: LINJ.03.0190	Leishmania donovani extract	10 µM	relative to: vehicle	relative abundance	0.78
